Assay results gathered from unrelated publications.
Parts stem from different laboratories: compare values within a part only.
Chain of UniProt P49674 (whole entry, looked up): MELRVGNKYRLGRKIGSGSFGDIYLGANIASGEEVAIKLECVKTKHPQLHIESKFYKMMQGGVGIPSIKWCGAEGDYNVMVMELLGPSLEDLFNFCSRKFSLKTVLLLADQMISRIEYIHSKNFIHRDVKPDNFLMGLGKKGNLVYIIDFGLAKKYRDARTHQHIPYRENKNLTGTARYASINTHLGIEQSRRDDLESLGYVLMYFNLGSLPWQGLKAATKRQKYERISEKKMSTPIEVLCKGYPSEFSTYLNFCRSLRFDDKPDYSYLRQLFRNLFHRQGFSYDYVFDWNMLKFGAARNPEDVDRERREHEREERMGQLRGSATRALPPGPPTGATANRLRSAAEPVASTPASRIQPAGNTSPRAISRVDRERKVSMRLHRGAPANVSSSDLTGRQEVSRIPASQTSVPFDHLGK
Chain of UniProt Q8NEV4 (whole entry, looked up): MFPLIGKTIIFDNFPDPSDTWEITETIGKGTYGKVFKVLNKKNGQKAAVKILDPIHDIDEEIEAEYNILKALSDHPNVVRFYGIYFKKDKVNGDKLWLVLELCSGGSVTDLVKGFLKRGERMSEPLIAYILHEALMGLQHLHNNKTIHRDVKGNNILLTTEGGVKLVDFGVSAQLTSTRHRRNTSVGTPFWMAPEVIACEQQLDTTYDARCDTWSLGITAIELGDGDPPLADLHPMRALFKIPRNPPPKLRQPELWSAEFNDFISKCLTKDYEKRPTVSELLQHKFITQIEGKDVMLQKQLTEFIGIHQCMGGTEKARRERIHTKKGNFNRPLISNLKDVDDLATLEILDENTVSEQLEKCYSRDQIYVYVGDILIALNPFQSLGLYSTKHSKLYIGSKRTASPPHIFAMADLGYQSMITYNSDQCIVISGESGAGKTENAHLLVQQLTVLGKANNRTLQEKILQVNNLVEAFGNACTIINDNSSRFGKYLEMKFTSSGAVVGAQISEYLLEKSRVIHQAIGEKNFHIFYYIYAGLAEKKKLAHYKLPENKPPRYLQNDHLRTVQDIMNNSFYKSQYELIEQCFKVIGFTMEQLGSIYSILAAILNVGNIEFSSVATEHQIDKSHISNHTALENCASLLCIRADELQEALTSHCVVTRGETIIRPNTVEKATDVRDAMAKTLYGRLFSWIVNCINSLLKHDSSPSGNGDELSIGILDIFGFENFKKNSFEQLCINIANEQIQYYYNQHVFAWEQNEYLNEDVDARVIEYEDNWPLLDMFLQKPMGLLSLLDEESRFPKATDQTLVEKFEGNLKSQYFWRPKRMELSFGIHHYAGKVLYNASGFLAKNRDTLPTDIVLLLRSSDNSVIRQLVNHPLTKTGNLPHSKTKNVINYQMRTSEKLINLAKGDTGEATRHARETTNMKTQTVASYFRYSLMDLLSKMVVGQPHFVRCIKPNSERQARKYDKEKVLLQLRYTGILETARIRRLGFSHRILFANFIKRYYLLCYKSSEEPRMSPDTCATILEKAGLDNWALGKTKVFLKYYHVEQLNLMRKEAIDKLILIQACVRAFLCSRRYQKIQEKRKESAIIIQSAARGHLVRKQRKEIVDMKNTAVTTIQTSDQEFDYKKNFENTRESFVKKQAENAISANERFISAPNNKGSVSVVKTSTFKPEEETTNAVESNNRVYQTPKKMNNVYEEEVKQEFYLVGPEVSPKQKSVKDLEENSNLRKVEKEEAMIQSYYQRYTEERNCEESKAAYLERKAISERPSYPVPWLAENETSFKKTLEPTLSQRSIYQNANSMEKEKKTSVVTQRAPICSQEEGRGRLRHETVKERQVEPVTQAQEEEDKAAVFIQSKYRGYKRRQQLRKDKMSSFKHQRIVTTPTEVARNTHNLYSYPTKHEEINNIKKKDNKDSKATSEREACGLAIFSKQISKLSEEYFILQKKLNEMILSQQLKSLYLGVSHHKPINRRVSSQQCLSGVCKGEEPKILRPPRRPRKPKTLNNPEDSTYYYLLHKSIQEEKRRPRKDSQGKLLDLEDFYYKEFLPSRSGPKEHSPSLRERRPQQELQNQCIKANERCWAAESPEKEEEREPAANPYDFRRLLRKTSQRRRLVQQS
Chain of UniProt Q16566 (whole entry, looked up): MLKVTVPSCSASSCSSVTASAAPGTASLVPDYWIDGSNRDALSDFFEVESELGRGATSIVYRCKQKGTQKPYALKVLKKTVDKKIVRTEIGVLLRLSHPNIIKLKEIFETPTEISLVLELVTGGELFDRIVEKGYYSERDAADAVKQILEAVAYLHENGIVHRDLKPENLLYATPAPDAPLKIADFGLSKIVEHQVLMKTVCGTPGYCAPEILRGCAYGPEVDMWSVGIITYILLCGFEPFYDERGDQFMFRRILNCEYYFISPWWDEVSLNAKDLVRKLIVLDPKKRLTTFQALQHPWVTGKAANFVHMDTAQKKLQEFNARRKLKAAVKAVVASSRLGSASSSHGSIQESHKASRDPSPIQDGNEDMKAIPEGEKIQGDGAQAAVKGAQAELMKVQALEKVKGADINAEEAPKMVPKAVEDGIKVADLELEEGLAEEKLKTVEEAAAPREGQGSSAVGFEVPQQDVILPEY
Chain of UniProt P07949 (whole entry, unmodified, looked up): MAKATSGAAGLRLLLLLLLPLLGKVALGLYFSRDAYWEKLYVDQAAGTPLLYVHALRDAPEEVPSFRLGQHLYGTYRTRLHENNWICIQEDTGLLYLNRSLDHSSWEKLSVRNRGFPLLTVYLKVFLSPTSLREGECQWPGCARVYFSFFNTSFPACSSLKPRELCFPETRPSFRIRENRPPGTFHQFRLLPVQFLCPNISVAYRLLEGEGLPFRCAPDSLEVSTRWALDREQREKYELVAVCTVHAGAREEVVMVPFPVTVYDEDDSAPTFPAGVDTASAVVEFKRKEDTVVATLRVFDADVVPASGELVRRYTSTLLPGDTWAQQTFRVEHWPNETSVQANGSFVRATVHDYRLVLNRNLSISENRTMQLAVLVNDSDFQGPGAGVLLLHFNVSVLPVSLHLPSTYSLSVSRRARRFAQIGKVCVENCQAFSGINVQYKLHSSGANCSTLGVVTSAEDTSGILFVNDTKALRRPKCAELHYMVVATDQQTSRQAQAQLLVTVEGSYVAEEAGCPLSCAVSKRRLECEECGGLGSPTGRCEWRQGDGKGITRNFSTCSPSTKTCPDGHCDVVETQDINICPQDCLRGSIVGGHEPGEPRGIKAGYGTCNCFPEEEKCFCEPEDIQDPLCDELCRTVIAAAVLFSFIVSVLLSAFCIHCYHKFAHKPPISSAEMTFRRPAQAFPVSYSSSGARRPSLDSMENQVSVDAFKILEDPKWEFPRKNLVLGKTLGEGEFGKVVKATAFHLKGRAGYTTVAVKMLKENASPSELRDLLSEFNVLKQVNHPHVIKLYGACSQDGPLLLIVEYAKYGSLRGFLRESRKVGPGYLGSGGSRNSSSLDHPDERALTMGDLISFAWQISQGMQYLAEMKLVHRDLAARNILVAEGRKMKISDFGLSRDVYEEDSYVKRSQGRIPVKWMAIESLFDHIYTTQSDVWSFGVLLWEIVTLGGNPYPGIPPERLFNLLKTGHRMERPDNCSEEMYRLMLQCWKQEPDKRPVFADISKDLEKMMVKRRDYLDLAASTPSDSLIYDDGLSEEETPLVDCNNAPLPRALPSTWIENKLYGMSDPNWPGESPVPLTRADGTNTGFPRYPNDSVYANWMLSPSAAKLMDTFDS
Chain of UniProt P49759 (whole entry, looked up): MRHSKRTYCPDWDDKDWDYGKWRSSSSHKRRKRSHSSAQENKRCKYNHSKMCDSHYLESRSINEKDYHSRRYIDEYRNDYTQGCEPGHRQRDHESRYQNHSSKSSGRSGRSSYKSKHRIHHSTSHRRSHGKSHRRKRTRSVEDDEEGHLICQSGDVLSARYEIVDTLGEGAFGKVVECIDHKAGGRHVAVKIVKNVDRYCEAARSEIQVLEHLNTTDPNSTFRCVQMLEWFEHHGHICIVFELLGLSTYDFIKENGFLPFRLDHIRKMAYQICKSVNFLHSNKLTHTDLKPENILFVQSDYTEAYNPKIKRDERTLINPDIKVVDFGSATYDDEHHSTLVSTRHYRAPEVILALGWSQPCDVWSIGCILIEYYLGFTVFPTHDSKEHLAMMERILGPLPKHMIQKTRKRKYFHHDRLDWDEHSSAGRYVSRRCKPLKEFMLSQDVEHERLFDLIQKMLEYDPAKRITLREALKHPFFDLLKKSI
Chain of UniProt P48039 (whole entry, looked up): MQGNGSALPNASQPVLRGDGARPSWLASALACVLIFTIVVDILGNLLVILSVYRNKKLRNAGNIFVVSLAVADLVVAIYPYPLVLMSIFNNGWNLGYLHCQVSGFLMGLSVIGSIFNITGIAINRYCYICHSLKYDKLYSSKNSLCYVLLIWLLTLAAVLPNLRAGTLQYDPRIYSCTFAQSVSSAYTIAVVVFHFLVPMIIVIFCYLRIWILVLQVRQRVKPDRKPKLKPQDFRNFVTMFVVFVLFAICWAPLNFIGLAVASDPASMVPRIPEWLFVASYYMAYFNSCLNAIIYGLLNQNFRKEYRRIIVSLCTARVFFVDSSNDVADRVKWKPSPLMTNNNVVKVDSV
Chain of UniProt Q9Y616 (whole entry, looked up): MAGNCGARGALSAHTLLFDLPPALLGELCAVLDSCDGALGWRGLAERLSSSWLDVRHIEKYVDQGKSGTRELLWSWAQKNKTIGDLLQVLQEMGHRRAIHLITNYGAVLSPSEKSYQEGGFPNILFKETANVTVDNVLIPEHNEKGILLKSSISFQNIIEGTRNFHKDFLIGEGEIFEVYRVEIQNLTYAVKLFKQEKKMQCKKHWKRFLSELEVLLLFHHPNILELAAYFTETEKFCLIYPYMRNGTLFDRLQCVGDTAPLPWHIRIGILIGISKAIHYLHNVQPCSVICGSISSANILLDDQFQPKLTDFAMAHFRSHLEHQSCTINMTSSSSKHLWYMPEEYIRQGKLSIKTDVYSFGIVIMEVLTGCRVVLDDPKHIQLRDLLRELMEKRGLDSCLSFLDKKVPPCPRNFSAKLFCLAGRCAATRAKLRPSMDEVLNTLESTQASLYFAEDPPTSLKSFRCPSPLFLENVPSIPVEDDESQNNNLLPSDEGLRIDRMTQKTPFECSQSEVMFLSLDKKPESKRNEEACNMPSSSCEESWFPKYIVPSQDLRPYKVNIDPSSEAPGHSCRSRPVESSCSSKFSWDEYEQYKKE

Series 1
Organism: Sarcocystis neurona
Effect on: parasite growth
Tested at: 10 µM
Time: 96 h
Setting: second screen
Relative to: untreated
| Structure (SMILES) | log2 fold change |
| --- | --- |
| CCC(C)(C)C(=O)O[C@H]1C[C@@H](C)C=C2C=C[C@H](C)[C@H](CC[C@@H]3C[C@@H](O)CC(=O)O3)[C@H]21 | 0.55 |
| CCCCNc1cc(C(=O)O)cc(S(N)(=O)=O)c1Oc1ccccc1 | 0.34 |
| CC1=C(/C=C/C(C)=C/C=C/C(C)=C\C(=O)O)C(C)(C)CCC1 | 0.61 |
| CC(C)NCC(O)c1cc(O)cc(O)c1 (stereo not shown) | 0.39 |
| Nc1nc2c(ncn2CCC(CO)CO)c(=O)[nH]1 | 0.42 |
| COC(=O)C[C@](O)(CCCC(C)(C)O)C(=O)O[C@@H]1C(OC)=C[C@]23CCCN2CCc2cc4c(cc2[C@H]13)OCO4 | -6.56 |
| CN(C)CCC(c1ccc(Cl)cc1)c1ccccn1 (stereo not shown) | 0.17 |
| CO[C@@]1(NC(=O)Cc2cccs2)C(=O)N2C(C(=O)O)=C(COC(N)=O)CS[C@@H]21 | 0.24 |
| CCOC(=O)C1=C(C)NC(C)=C(C(=O)OCC)C1c1ccccc1/C=C/C(=O)OC(C)(C)C | 0.09 |
| CCOC(=O)N1CCC(=C2c3ccc(Cl)cc3CCc3cccnc32)CC1 | 0.41 |
| c1cnc(N2CCN(Cc3ccc4c(c3)OCO4)CC2)nc1 | 0.6 |
| COc1cccc2c1C(=O)c1c(O)c3c(c(O)c1C2=O)C[C@@](O)(C(=O)CO)C[C@@H]3O[C@H]1C[C@H](N)[C@@H](O)[C@H](C)O1 | -1.66 |
| C[C@@H]1C[C@H]2[C@@H]3C[C@H](F)C4=CC(=O)C(Cl)=C[C@]4(C)[C@@]3(F)[C@@H](O)C[C@]2(C)[C@@]1(O)C(=O)CO | 0.11 |
| NC(=O)c1cccnc1 | 0.36 |
| CC[C@]1(O)C[C@H]2CN(CCc3c([nH]c4ccccc34)[C@@](C(=O)OC)(c3cc4c(cc3OC)N(C=O)[C@H]3[C@@](O)(C(=O)OC)[C@H](OC(C)=O)[C@]5(CC)C=CCN6CC[C@]43[C@@H]65)C2)C1 | 0.29 |

Series 2
Structure (SMILES): COc1ccc2cc(OCC3(C(=O)O)CN(C(=O)c4ccc(F)cc4)C3)ccc2c1
Tested at: 1 µM
| target | assay | remaining binding [%] |
| --- | --- | --- |
| Mast/stem cell growth factor receptor Kit (KIT, Homo sapiens, UniProt P10721, D816H) | cell-free assay, competition with immobilised ligand | 82 |
| Cyclin-dependent kinase 14 (CDK14, Homo sapiens, UniProt O94921) | cell-free assay, competition with immobilised ligand | 100 |
| Myosin-IIIa (MYO3A, Homo sapiens, UniProt Q8NEV4) | binding, competition with immobilised ligand | 100 |
| MAP kinase-interacting serine/threonine-protein kinase 1 (MKNK1, Homo sapiens, UniProt Q9BUB5) | cell-free assay, competition with immobilised ligand | 93 |
| Tyrosine-protein kinase ABL2 (ABL2, Homo sapiens, UniProt P42684) | cell-free assay, competition with immobilised ligand | 100 |
| Calcium/calmodulin-dependent protein kinase type IV (CAMK4, Homo sapiens, UniProt Q16566) | cell-free assay, competition with immobilised ligand | 88 |
| Receptor-interacting serine/threonine-protein kinase 4 (RIPK4, Homo sapiens, UniProt P57078) | cell-free assay, competition with immobilised ligand | 66 |
| Epidermal growth factor receptor (EGFR, Homo sapiens, UniProt P00533, A750P/del747-749) | cell-free assay, competition with immobilised ligand | 100 |
| Interferon-induced, double-stranded RNA-activated protein kinase (EIF2AK2, Homo sapiens, UniProt P19525) | cell-free assay, competition with immobilised ligand | 100 |
| Serine/threonine-protein kinase TAO3 (TAOK3, Homo sapiens, UniProt Q9H2K8) | binding, competition with immobilised ligand | 35 |
| Tyrosine-protein kinase ABL1, phosphorylated (ABL1, Homo sapiens, UniProt P00519, Y253F) | cell-free assay, competition with immobilised ligand | 100 |
| cAMP-dependent protein kinase catalytic subunit PRKX (PRKX, Homo sapiens, UniProt P51817) | cell-free assay, competition with immobilised ligand | 90 |
| Receptor-type tyrosine-protein kinase FLT3 (FLT3, Homo sapiens, UniProt P36888, K663Q) | cell-free assay, competition with immobilised ligand | 100 |
| Phosphatidylinositol 5-phosphate 4-kinase type-2 beta (PIP4K2B, Homo sapiens, UniProt P78356) | cell-free assay, competition with immobilised ligand | 74 |
| Proto-oncogene tyrosine-protein kinase receptor Ret (RET, Homo sapiens, UniProt P07949, M918T) | cell-free assay, competition with immobilised ligand | 75 |
| Serine/threonine-protein kinase SIK1 (SIK1, Homo sapiens, UniProt P57059) | competition binding | 97 |
| STE20/SPS1-related proline-alanine-rich protein kinase (STK39, Homo sapiens, UniProt Q9UEW8) | cell-free assay, competition with immobilised ligand | 55 |
| Serine/threonine-protein kinase RIO3 (RIOK3, Homo sapiens, UniProt O14730) | cell-free assay, competition with immobilised ligand | 97 |
| Serine/threonine-protein kinase DCLK2 (DCLK2, Homo sapiens, UniProt Q8N568) | cell-free assay, competition with immobilised ligand | 100 |
| Cyclin-G-associated kinase (GAK, Homo sapiens, UniProt O14976) | cell-free assay, competition with immobilised ligand | 88 |
| Casein kinase I isoform epsilon (CSNK1E, Homo sapiens, UniProt P49674) | cell-free assay, competition with immobilised ligand | 94 |
| Homeodomain-interacting protein kinase 3 (HIPK3, Homo sapiens, UniProt Q9H422) | cell-free assay, competition with immobilised ligand | 100 |
| cGMP-dependent protein kinase 2 (PRKG2, Homo sapiens, UniProt Q13237) | cell-free assay, competition with immobilised ligand | 85 |
| Interleukin-1 receptor-associated kinase 3 (IRAK3, Homo sapiens, UniProt Q9Y616) | cell-free assay, competition with immobilised ligand | 100 |
| Aurora kinase B (AURKB, Homo sapiens, UniProt Q96GD4) | cell-free assay, competition with immobilised ligand | 100 |

Series 3
SMILES: Nc1cccc(-c2cc3c(Oc4cccc(O)c4)ncnc3[nH]2)c1
Effect on: enzyme activity
Mode: inhibitor
Tested at: 0.5 µM
Relative to: control
| target | remaining activity [%] |
| --- | --- |
| Tyrosine-protein kinase receptor TYRO3 (TYRO3, Homo sapiens, UniProt Q06418) | 52.1 |
| Serine/threonine-protein kinase Sgk2 (SGK2, Homo sapiens, UniProt Q9HBY8) | 96.2 |
| Cyclin-dependent kinase 2, with cyclin E (CDK2, Homo sapiens, UniProt P24941) | 90 |
| Ephrin type-A receptor 2 (EPHA2, Homo sapiens, UniProt P29317) | 48.2 |
| Tyrosine-protein kinase Tec (TEC, Homo sapiens, UniProt P42680) | 108 |
| Calcium/calmodulin-dependent protein kinase kinase 1 (CAMKK1, Homo sapiens, UniProt Q8N5S9) | 113 |
| Calcium/calmodulin-dependent protein kinase type 1 (CAMK1, Homo sapiens, UniProt Q14012) | 112 |
| Vascular endothelial growth factor receptor 1 (FLT1, Homo sapiens, UniProt P17948) | 8.56 |
| Casein kinase I isoform epsilon (CSNK1E, Homo sapiens, UniProt P49674) | 92.9 |
| SRSF protein kinase 1 (SRPK1, Homo sapiens, UniProt Q96SB4) | 107 |
| Serine/threonine-protein kinase PAK 1 (PAK1, Homo sapiens, UniProt Q13153) | 88 |
| Tyrosine-protein kinase JAK1 (JAK1, Homo sapiens, UniProt P23458) | 106 |
| Protein kinase C theta type (PRKCQ, Homo sapiens, UniProt Q04759) | 64.5 |
| Ribosomal protein S6 kinase alpha-3 (RPS6KA3, Homo sapiens, UniProt P51812) | 96.9 |
| Serine/threonine-protein kinase PAK 6 (PAK6, Homo sapiens, UniProt Q9NQU5) | 109 |
| Dual specificity protein kinase CLK2 (CLK2, Homo sapiens, UniProt P49760) | 98.8 |
| Casein kinase I isoform delta (CSNK1D, Homo sapiens, UniProt P48730) | 96.8 |
| Serine/threonine-protein kinase SIK2 (SIK2, Homo sapiens, UniProt Q9H0K1) | 69.4 |
| Insulin-like growth factor 1 receptor (IGF1R, Homo sapiens, UniProt P08069) | 99.5 |
| Protein kinase C zeta type (PRKCZ, Homo sapiens, UniProt Q05513) | 94 |
| Dual specificity protein kinase CLK1 (CLK1, Homo sapiens, UniProt P49759) | 93 |
| Mitogen-activated protein kinase kinase kinase 20 (MAP3K20, Homo sapiens, UniProt Q9NYL2) | 13.9 |

Series 4
SMILES: CC(C)CN(C)c1nc(N)c(C(=O)N=C(N)N)nc1Cl
Effect on: β-arrestin recruitment
Mode: agonist
Method: PRESTO-Tango
Tested at: 10 µM
Relative to: untreated
| target | fold over basal |
| --- | --- |
| 5-hydroxytryptamine receptor 1F (HTR1F, Homo sapiens, UniProt P30939) | 0.72 |
| Endothelin-1 receptor (EDNRA, Homo sapiens, UniProt P25101) | 0.83 |
| Mas-related G-protein coupled receptor member G (MRGPRG, Homo sapiens, UniProt Q86SM5) | 0.82 |
| Type-1 angiotensin II receptor (AGTR1, Homo sapiens, UniProt P30556) | 0.73 |
| Vasoactive intestinal polypeptide receptor 2 (VIPR2, Homo sapiens, UniProt P41587) | 1.25 fold |
| Melatonin receptor type 1A (MTNR1A, Homo sapiens, UniProt P48039) | 1.42 |
| C-X-C chemokine receptor type 2 (CXCR2, Homo sapiens, UniProt P25025) | 1.02 |
| G-protein coupled receptor 151 (GPR151, Homo sapiens, UniProt Q8TDV0) | 1.69 |

A few entries again (series 3):
| target | remaining activity [%] |
| --- | --- |
| Insulin-like growth factor 1 receptor (IGF1R, Homo sapiens, UniProt P08069) | 99.5 |
| Serine/threonine-protein kinase PAK 6 (PAK6, Homo sapiens, UniProt Q9NQU5) | 109 |
| Protein kinase C theta type (PRKCQ, Homo sapiens, UniProt Q04759) | 64.5 |
| Calcium/calmodulin-dependent protein kinase type 1 (CAMK1, Homo sapiens, UniProt Q14012) | 112 |
| Tyrosine-protein kinase Tec (TEC, Homo sapiens, UniProt P42680) | 108 |
| Serine/threonine-protein kinase PAK 1 (PAK1, Homo sapiens, UniProt Q13153) | 88 |
| Tyrosine-protein kinase receptor TYRO3 (TYRO3, Homo sapiens, UniProt Q06418) | 52.1 |
| SRSF protein kinase 1 (SRPK1, Homo sapiens, UniProt Q96SB4) | 107 |
| Dual specificity protein kinase CLK1 (CLK1, Homo sapiens, UniProt P49759) | 93 |
| Vascular endothelial growth factor receptor 1 (FLT1, Homo sapiens, UniProt P17948) | 8.56 |
| Casein kinase I isoform epsilon (CSNK1E, Homo sapiens, UniProt P49674) | 92.9 |
